Assay results collected from several papers.
Each line is one published result; not all experiments were run side by side. Values joined by “and” are separate records of one study, mostly repeats; a detail may differ. Numbers after ± are the reported error.
Cell line: Caco-2

Compound | assay | system | conditions | scale | endpoint | value
C=CC(=O)N1CCCC(Oc2ccc(Cl)cn2)C1 (centres unmarked) | resazurin | – | 0.25 to 1 mM | – | viability | > 85%
CC[C@H](C)[C@H](NC(=O)[C@H](C)NC(=O)[C@H](CCC(=O)O)NC(=O)[C@H](CCC(=O)O)NC(=O)[C@H](CC(C)C)NC(=O)[C@H](CCCCN)NC(=O)[C@H](CCCCN)NC(=O)[C@H](CCSC)NC(=O)[C@H](CCC(=O)O)NC(=O)[C@H](Cc1ccc(O)cc1)NC(=O)[C@H](CCC(=O)O)NC(=O)[C@H](CC(C)C)NC(=O)[C@H](CC(=O)O)NC(=O)[C@H](CC(C)C)NC(=O)[C@H](Cc1ccccc1)NC(=O)[C@@H](NC(=O)[C@@H](NC(=O)[C@@H](N)CC(N)=O)C(C)C)[C@@H](C)O)C(=O)N[C@@H](CCCCN)C(=O)N[C@@H](CCCCN)C(=O)N[C@@H](CC(C)C)C(=O)N[C@@H](CCC(=O)O)C(=O)N[C@@H](CCC(=O)O)C(=O)N[C@@H](CO)C(=O)N[C@@H](Cc1ccc(O)cc1)C(=O)N[C@H](C(=O)N[C@@H](CC(=O)O)C(=O)N[C@@H](CC(C)C)C(=O)N[C@@H](CCCCN)C(=O)N[C@@H](CCC(=O)O)C(=O)N[C@@H](CC(C)C)C(=O)NCC(=O)N[C@H](C(=O)N[C@@H](Cc1ccc(O)cc1)C(=O)N[C@@H](CCC(=O)O)C(=O)N[C@@H](Cc1ccc(O)cc1)C(=O)NCC(=O)N[C@@H](CO)C(=O)NCC(=O)N[C@@H](CSCC(=O)O[C@H]1CC[C@@]2(C)C(=CC[C@H]3[C@@H]4CC[C@H]([C@H](C)CCCC(C)C)[C@@]4(C)CC[C@@H]32)C1)C(N)=O)[C@@H](C)O)[C@@H](C)CC | – | – | 48 h | – | CC50 | 13.8 µM
Nc1nc(Nc2ccc(Cl)cc2)nn1S(=O)(=O)c1ccc2ccccc2c1 | – | – | 10 µM, 90 (unit not given), pH 7.4 | – | Papp A-B | 0.138 ×10⁻⁶ cm/s
CCCCn1cc(C(=O)O)c(=O)c2cc(F)c(Nc3ccccc3Cl)c(N)c21 | cell growth or viability, SRB | – | – | – | IC50 | 264 µM
C#CCCCNCCNc1ccnc2cc(Cl)ccc12 | – | – | – | – | CC50 | 27.4 ± 1.2 µM
C#CCCCOP(=O)(O)Oc1c2c(c(OP(=O)(O)OCCCC#C)c3c1C1CC3c3cc4c(cc31)C1CC4c3ccccc31)C1CC2c2cc3c(cc21)C1CC3c2ccccc21 | CellTiter-Glo | – | 2 days | – | CC50 | > 300 µM
CCCCn1cc(C(=O)O)c(=O)c2cc(F)c3c(nnn3-c3cccc(Cl)c3)c21 | cell growth or viability, SRB | – | – | – | IC50 | 223 µM
CN(C)CC1CCCCC1(O)c1cccc(O)c1 (centres unmarked) | – | – | concentration not given, apical-to-basolateral, apical pH 7.4 to 6.8 | – | permeability decrease | ~50%
O=P(O)(O)Oc1c2c(c(OP(=O)(O)O)c3c1C1CC3c3cc4c(cc31)C1CC4c3ccccc31)C1CC2c2cc3c(cc21)C1CC3c2ccccc21 | CellTiter-Glo | – | 2 days | – | CC50 | > 300 µM
Clc1c(Cl)c(Cl)c2c(oc3c(Cl)c(Cl)c(Cl)c(Cl)c32)c1Cl | item: basolateral amount | gut-on-a-chip model | 0.2 ng/mL, 24 h, DMSO 1% | relative to: total applied amount | transport fraction | 0.6%
C=CC(=O)NCc1ccc(OC(C)(C)C)cc1 | resazurin | – | 0.25 to 1 mM | – | viability | > 85%
Cc1cc(-c2ccc3ccccc3c2)nnc1NCCN1CCN(C)CC1 | Caco-2 permeability | – | time not given, mean of both directions | – | recovery | 65%
O=P(O)(OCc1ccc(-c2ccccc2)cc1)Oc1c2c(c(OP(=O)(O)OCc3ccc(-c4ccccc4)cc3)c3c1C1CC3c3cc4c(cc31)C1CC4c3ccccc31)C1CC2c2cc3c(cc21)C1CC3c2ccccc21 | CellTiter-Glo | – | 2 days | – | CC50 | 40.8 µM
C(#Cc1cncc(OC[C@@H]2CCN2)c1)c1ccccc1 | Caco-2 permeability | – | 100 µM, 2 h, pH 7.4, together with: MK-571 100 µM | relative to: Papp B to A over A to B | efflux ratio | ~1
CCCCn1cc(C(=O)O)c(=O)c2cc(F)c3c(nnn3-c3ccccc3Cl)c21 | cell growth or viability, SRB | – | – | – | IC50 | 217 µM
NCCNc1ccnc2cc(Cl)ccc12 | – | – | – | – | CC50 | 93.7 ± 25.8 µM
O=P(O)(OCc1ccncc1)Oc1c2c(c(OP(=O)(O)OCc3ccncc3)c3c1C1CC3c3cc4c(cc31)C1CC4c3ccccc31)C1CC2c2cc3c(cc21)C1CC3c2ccccc21 | CellTiter-Glo | – | 2 days | – | CC50 | 292 µM
CCCCn1cc(C(=O)O)c(=O)c2cc(F)c(Nc3ccccc3Cl)c([N+](=O)[O-])c21 | cell growth, SRB | – | 72 h | – | IC50 | 134 ± 22.4 µg/mL
CC(C)C[C@H](N)C(=O)N1CCC[C@H]1C(=O)N[C@@H](Cc1ccccc1)C(=O)N[C@@H](C)C(=O)O | MTT | – | 0.5 and 1 mM, 4 h | – | viability | > 100%
CCCCC[C@@H]1OC(=O)[C@@H](C)N(C)C(=O)[C@H](CCCCC)OC(=O)[C@@H](C)N(C)C(=O)[C@H](CCCCC)OC(=O)[C@@H](C)N(C)C(=O)[C@H](CCCCC)OC(=O)[C@@H](C)N(C)C1=O | – | – | 10 µM, 2 h, pH 7.4 | – | Papp | 1 to 10 ×10⁻⁶ cm/s
C1=CCCC=CCC1.C1=CCCC=CCC1.[Cl][Hg-]([Cl])[Cl].[Cl][Hg-]([Cl])[Cl].[Pt+][c]1ccccc1P(=Nc1ccccc1)(c1ccccc1)c1ccccc1.[Pt+][c]1ccccc1P(=Nc1ccccc1)(c1ccccc1)c1ccccc1 | Caco-2 monolayer transport | HBSS with HEPES | 20 µM, 90 min | – | Papp | 4.62 ×10⁻⁶ cm/s
O=P(O)(OCc1ccccc1)Oc1c2c(c(OP(=O)(O)OCc3ccccc3)c3c1C1CC3c3cc4c(cc31)C1CC4c3ccccc31)C1CC2c2cc3c(cc21)C1CC3c2ccccc21 | CellTiter-Glo | – | 2 days | – | CC50 | 122 µM
CCCCC[C@H]1C(=O)N(C)[C@H](C)C(=O)N(C)[C@@H](CCCCC)C(=O)N(C)[C@H](C)C(=O)N(C)[C@@H](CCCCC)C(=O)N(C)[C@H](C)C(=O)N(C)[C@@H](CCCCC)C(=O)N(C)[C@H](C)C(=O)N1C | – | – | 10 µM | relative to: B-A over A-B | efflux ratio | 0.928
CCCCCCCCCCCCCCCCCCOP(=O)(O)Oc1c2c(c(OP(=O)(O)OCCCCCCCCCCCCCCCCCC)c3c1C1CC3c3cc4c(cc31)C1CC4c3ccccc31)C1CC2c2cc3c(cc21)C1CC3c2ccccc21 | CellTiter-Glo | – | 2 days | – | CC50 | > 300 µM
CCCCn1cc(C(=O)O)c(=O)c2cc(F)c(Nc3cccc(Cl)c3)c([N+](=O)[O-])c21 | cell growth, SRB | – | 72 h | – | IC50 | 117 ± 6.46 µg/mL
C[N+](C)(C)CCOP(=O)([O-])Oc1c2c(c(OP(=O)([O-])OCC[N+](C)(C)C)c3c1C1CC3c3cc4c(cc31)C1CC4c3ccccc31)C1CC2c2cc3c(cc21)C1CC3c2ccccc21 | CellTiter-Glo | – | 2 days | – | CC50 | 296 µM
CCCCn1cc(C(=O)O)c(=O)c2cc(F)c(Nc3cccc(Cl)c3)c(N)c21 | cell growth or viability, SRB | – | – | – | IC50 | 46 µM and 63.6 µM
O=P(O)(OCCCc1ccccc1)Oc1c2c(c(OP(=O)(O)OCCCc3ccccc3)c3c1C1CC3c3cc4c(cc31)C1CC4c3ccccc31)C1CC2c2cc3c(cc21)C1CC3c2ccccc21 | CellTiter-Glo | – | 2 days | – | CC50 | 83.8 µM
Clc1cc2oc3cc(Cl)c(Cl)c(Cl)c3c2cc1Cl | item: basolateral amount | gut-on-a-chip model | 0.2 ng/mL, 24 h, DMSO 1% | relative to: total applied amount | transport fraction | 3.3%

Repeated from above:
Compound | assay | system | conditions | scale | endpoint | value
C=CC(=O)N1CCCC(Oc2ccc(Cl)cn2)C1 (centres unmarked) | resazurin | – | 0.25 to 1 mM | – | viability | > 85%
C1=CCCC=CCC1.C1=CCCC=CCC1.[Cl][Hg-]([Cl])[Cl].[Cl][Hg-]([Cl])[Cl].[Pt+][c]1ccccc1P(=Nc1ccccc1)(c1ccccc1)c1ccccc1.[Pt+][c]1ccccc1P(=Nc1ccccc1)(c1ccccc1)c1ccccc1 | Caco-2 monolayer transport | HBSS with HEPES | 20 µM, 90 min | – | Papp | 4.62 ×10⁻⁶ cm/s
CCCCn1cc(C(=O)O)c(=O)c2cc(F)c3c(nnn3-c3cccc(Cl)c3)c21 | cell growth or viability, SRB | – | – | – | IC50 | 223 µM
C#CCCCOP(=O)(O)Oc1c2c(c(OP(=O)(O)OCCCC#C)c3c1C1CC3c3cc4c(cc31)C1CC4c3ccccc31)C1CC2c2cc3c(cc21)C1CC3c2ccccc21 | CellTiter-Glo | – | 2 days | – | CC50 | > 300 µM
